Results collected from several papers.
Each line is one published result; not all experiments were run side by side. ± gives the spread as reported.
gdpP residues 84-659: gdpP, residues 84-659 (Bacillus subtilis, UniProt P37484)
Sequence of UniProt P37484 (84-659, looked up): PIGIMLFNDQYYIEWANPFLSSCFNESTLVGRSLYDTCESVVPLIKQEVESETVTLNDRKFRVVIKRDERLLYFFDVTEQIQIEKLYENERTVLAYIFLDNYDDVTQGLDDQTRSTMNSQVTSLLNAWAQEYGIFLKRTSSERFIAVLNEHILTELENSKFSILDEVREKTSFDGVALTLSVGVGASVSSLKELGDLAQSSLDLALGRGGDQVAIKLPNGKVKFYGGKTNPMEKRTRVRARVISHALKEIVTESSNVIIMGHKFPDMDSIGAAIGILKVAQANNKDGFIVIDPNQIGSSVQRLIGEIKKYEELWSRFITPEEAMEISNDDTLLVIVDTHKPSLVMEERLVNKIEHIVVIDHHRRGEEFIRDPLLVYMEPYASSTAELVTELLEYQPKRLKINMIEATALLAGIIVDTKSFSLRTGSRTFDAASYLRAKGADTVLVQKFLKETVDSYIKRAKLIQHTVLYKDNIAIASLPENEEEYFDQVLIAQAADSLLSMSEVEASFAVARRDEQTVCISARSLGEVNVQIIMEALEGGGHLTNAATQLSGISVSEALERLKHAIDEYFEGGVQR
KCNMA1 with beta-3 subunit: Calcium-activated potassium channel subunit alpha-1, with beta-3 subunit (KCNMA1, Homo sapiens, UniProt Q12791)
Sequence of UniProt Q12791 (whole entry, looked up): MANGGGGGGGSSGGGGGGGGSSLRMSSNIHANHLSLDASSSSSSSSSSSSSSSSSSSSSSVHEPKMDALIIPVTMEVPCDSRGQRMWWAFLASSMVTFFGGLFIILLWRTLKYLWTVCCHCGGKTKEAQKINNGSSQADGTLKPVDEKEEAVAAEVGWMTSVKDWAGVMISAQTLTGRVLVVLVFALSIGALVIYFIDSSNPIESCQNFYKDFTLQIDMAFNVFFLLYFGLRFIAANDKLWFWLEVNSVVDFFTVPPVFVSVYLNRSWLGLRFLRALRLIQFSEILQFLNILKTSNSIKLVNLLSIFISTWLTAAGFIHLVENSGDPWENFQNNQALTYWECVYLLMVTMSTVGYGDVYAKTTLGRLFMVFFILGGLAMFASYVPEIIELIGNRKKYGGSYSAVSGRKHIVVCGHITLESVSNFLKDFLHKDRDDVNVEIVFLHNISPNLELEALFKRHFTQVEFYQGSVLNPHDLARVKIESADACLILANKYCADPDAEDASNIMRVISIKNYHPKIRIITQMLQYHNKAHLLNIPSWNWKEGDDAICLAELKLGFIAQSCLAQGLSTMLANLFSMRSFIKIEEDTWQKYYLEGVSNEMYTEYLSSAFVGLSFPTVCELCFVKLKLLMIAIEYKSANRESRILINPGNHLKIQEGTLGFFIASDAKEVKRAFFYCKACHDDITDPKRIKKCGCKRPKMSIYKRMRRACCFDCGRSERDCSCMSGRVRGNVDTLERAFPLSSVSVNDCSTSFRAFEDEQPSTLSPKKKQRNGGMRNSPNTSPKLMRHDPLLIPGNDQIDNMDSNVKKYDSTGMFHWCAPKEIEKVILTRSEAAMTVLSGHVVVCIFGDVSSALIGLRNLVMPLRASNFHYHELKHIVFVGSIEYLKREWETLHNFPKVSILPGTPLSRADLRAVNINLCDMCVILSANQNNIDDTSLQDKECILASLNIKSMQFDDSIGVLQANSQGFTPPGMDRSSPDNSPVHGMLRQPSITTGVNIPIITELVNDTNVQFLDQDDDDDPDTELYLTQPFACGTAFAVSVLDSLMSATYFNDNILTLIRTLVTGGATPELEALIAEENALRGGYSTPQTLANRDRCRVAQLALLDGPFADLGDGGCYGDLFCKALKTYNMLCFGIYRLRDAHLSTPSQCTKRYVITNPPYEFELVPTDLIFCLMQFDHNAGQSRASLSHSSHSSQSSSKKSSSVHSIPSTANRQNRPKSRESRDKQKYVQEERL
CNR1: Cannabinoid receptor 1 (CNR1, Homo sapiens, UniProt P21554)
Sequence of UniProt P21554 (whole entry, looked up): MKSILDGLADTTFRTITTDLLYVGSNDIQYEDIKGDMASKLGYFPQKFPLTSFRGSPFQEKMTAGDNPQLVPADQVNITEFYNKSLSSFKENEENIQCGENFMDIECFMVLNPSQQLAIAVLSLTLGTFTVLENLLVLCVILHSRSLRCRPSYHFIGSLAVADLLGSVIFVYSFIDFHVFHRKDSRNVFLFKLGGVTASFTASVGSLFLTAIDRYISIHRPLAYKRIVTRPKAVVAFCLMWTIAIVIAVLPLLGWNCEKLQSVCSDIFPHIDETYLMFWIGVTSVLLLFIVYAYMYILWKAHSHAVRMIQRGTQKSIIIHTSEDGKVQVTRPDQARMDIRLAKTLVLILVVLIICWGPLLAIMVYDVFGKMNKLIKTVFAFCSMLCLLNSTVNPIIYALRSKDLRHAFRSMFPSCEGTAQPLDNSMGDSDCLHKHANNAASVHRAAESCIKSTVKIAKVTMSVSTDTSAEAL
Sequence of UniProt P06276 (whole entry, looked up): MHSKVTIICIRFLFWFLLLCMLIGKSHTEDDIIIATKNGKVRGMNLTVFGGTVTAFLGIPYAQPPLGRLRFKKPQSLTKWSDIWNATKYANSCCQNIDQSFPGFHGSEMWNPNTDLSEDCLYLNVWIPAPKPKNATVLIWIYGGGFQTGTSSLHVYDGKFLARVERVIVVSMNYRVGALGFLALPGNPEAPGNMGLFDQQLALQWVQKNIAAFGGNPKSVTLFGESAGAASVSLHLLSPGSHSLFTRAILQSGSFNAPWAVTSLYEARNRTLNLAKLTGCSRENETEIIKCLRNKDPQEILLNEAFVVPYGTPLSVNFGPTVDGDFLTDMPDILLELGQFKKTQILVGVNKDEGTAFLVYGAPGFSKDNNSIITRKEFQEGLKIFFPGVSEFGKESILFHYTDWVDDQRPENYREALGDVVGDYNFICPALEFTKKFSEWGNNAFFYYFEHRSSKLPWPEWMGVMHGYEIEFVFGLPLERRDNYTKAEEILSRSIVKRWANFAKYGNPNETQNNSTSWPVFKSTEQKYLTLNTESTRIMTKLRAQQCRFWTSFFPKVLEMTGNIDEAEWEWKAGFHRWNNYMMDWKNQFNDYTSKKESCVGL
Sequence of UniProt P35398 (whole entry, looked up): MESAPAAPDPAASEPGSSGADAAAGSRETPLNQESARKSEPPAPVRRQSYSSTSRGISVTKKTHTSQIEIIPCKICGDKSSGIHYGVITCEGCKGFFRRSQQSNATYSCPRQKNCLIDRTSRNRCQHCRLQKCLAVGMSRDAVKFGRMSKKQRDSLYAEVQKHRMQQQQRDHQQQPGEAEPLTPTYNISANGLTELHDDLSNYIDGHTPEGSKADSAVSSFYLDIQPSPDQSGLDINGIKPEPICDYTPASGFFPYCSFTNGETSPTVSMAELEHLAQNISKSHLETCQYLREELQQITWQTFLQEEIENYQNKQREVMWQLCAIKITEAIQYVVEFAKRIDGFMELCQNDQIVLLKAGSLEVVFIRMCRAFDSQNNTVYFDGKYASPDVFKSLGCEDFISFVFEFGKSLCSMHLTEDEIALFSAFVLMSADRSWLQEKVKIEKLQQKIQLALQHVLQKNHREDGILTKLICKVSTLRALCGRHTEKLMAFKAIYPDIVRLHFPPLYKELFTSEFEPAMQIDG
Sequence of UniProt P81908 (whole entry, looked up): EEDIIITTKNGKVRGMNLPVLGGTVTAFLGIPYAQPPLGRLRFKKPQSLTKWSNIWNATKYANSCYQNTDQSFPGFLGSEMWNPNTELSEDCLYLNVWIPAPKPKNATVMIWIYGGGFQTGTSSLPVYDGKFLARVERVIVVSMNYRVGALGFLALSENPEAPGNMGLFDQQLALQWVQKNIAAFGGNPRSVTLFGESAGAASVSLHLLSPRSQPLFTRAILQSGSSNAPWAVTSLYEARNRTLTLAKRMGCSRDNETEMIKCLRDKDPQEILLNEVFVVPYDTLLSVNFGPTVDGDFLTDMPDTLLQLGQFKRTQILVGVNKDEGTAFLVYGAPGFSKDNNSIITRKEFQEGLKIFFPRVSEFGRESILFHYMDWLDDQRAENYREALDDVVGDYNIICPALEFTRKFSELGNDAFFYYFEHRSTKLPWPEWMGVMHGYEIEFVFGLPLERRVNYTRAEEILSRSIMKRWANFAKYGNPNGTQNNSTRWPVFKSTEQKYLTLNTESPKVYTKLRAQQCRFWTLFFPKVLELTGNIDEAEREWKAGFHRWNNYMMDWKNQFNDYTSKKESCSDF
Sequence of UniProt P18825 (whole entry, looked up): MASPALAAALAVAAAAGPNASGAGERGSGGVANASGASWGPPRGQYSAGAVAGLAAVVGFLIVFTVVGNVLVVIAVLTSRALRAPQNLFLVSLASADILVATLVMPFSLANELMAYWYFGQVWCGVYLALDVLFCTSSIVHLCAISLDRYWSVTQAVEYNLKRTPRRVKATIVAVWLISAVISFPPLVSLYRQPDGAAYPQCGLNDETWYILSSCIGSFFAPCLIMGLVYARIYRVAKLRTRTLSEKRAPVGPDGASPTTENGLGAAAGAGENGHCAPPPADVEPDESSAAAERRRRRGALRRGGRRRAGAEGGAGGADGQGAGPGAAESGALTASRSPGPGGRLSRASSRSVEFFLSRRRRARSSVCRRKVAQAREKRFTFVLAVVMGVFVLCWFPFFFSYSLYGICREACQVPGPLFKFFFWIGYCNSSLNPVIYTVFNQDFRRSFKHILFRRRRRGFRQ
Sequence of UniProt P54292 (whole entry, looked up): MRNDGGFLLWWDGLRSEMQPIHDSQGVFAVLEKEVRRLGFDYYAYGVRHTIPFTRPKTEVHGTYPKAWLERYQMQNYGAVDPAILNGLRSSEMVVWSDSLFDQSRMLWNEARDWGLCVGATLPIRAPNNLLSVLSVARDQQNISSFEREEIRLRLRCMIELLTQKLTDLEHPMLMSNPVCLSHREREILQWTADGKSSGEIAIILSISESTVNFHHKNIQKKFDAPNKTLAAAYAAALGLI
Sequence of UniProt Q8NKB0 (whole entry, unmodified, looked up): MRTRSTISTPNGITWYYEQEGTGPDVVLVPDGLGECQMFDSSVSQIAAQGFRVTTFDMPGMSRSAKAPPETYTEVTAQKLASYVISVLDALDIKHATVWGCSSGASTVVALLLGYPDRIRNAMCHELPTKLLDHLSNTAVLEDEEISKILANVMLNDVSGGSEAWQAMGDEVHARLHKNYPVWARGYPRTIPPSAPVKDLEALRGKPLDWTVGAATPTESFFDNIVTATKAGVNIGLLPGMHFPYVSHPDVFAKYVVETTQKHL

| Substance | target or system | test | system | setting | how to read | measurement | value |
| --- | --- | --- | --- | --- | --- | --- | --- |
| N.N.[Cl][Pt][Cl] | Alpha-synuclein, oligomers (SNCA, Homo sapiens, UniProt P37840) | oligomer-vesicle binding, FIDA | – | 5 µM, with: 150 nM oligomers, 50 µM DOPG liposomes | baseline: untreated | reduction in bound oligomers | 15 to 20% |
| COC1C(OC(=O)c2ccc(C)[nH]2)C(O)C(Oc2ccc3c(O)c(NC(=O)c4ccc(O)c(CC=C(C)C)c4)c(=O)oc3c2Cl)OC1(C)C (stereo not drawn) | UDP-galactose 4-epimerase (galE, Trypanosoma brucei, UniProt Q8T8E9) | enzyme activity, inhibitor, HPAEC | – | 30 µM, with: UDP-galactose substrate, 0.06% n-octylglucopyranoside | – | change in inhibition with detergent | no effect |
| CC(C)C[C@H](NC(=O)[C@H](Cc1ccccc1)NC(=O)c1cnccn1)B(O)O | Proteasome subunits (Trypanosoma cruzi, UniProt Q4CU77+Q4D8U7, I29M) | chymotrypsin-like activity | – | – | baseline: wild type | fold resistance | ~3 fold |
| Nc1ncnc2c1ncn2[C@@H]1O[C@@H]2CO[P@@](=O)(S)O[C@H]3[C@@H](O)[C@H](n4cnc5c(N)ncnc54)O[C@@H]3CO[P@](=O)(S)O[C@H]2[C@H]1O | gdpP residues 84-659 | substrate, HPLC | – | 100 µM, 37 °C, upper limit if undegraded 24 h, with: enzyme 1 µM | – | degradation rate | ≤ 0.001 mol/min/mol enzyme |
| CCOc1ccccc1S(=O)(=O)N1CC(c2nc(-c3ccc(F)s3)no2)C1 | KCNMA1 with beta-3 subunit | – | HEK293 | 30 µM | – | activity | inactive |
| CC(C)(NC(=O)c1nn(CC2CCC(F)(F)CC2)c2ccccc12)c1cccc(C(N)=O)c1 | CNR1 | calcium mobilization, agonist | CHO-K1 expressing Gαq16 | – | baseline: CP55,940 maximum | Emax | 86 ± 5% |
| COc1cc2c(cc1OC)-c1c3c(cc4ccnc(c14)C2=O)OCO3 | Cholinesterase (BCHE, Equus caballus, UniProt P81908) | enzyme activity, inhibitor, Ellman | – | up to 0.1 µg/mL | – | IC50 | inactive |
| Cc1ccc2cccc(S(=O)(=O)N3CC(c4nc(-c5ccc(F)cc5)no4)C3)c2n1 | KCNMA1 with beta-3 subunit | – | HEK293 | 30 µM | – | activity | inactive |
| Cc1cc(=O)oc2c(F)c(OP(=O)(O)O)c(F)cc12 | Tyrosine-protein phosphatase non-receptor type 11 (PTPN11, Homo sapiens, UniProt Q06124, S502P) | phosphatase activity, substrate | – | 0.025 nM enzyme, pH 7.2, S502P mutant basal no peptide | – | Km | 1.25 ± 0.09 mM |
| Oc1ccc2c3c1O[C@H]1c4ncc(-c5ccc(Cl)cc5)cc4C[C@@]4(O)[C@@H](C2)N(CC2CC2)CC[C@]314 | Delta-type opioid receptor (Oprd1, Rattus norvegicus, UniProt P33533) | – | yohimbine-treated rats, midbrain membranes | intraperitoneal, 5 mg/kg | baseline: pretreated over untreated | EC50 fold change | 37 fold |
| CC(C)(NC(=O)c1nn(CCCCC#N)c2ccccc12)c1cccc(C(N)=O)c1 | CNR1 | calcium mobilization, agonist | CHO-K1 expressing Gαq16 | – | baseline: CP55,940 maximum | Emax | 24 ± 9% |
| C[C@H]1CCCC(=O)CCC/C=C/c2cc(O)cc(O)c2C(=O)O1 | zhd101 (Clonostachys rosea, UniProt Q8NKB0, M154H) | substrate, HPLC | – | 10 min, pH 5.5, 37 °C, 1% acetonitrile | – | Km | 11.7 ± 1.23 mM |
| CCCC(C)Sc1nc2c([nH]1)c(=S)n(C)c(=O)n2C (stereo not drawn) | Androgen receptor (AR, Homo sapiens, UniProt P10275) | reporter gene, antagonist, PSA-luciferase | HeLa-A6 | 10 µM, 24 h, with: 5 nM dihydrotestosterone | baseline: maximal activity | remaining activity | 112% |
| CC(C)Cc1ccc(NC(=O)Oc2ccc3c(c2)[C@]2(C)CCN[C@@H]2N3)cc1 | Cholinesterase (BCHE, Homo sapiens, UniProt P06276) | inhibitor, immobilized enzyme reactor, HPLC-UV | immobilized recombinant human enzyme | 30 °C, after near-complete inhibition | – | decarbamoylation rate constant k3 | 0.163 ± 0.003 h⁻¹ |
| copper-phenanthroline | Gabrg2/GABRB2/Gabra1 (Rattus norvegicus, UniProt P18508+P47870+P62813, C260A/C282A/C312A/C319A/C341A/F313C/L258C) | two-electrode voltage clamp | Xenopus oocytes | 100 µM with phenanthroline 200 µM, 2 min, after DTT, with: GABA 100 µM | baseline: initial response, vs Cys-less receptor | GABA current change | decreased |
| Nc1ncnc2c1ncn2[C@@H]1O[C@@H]2COP(=O)(O)O[C@H]3[C@@H](O)[C@H](n4cnc5c(=O)[nH]cnc54)O[C@@H]3COP(=O)(O)O[C@H]2[C@H]1O | gdpP residues 84-659 | substrate, HPLC | – | 100 µM, 37 °C, upper limit if undegraded 24 h, with: enzyme 1 µM | – | degradation rate | 1.3 ± 0.2 mol/min/mol enzyme |
| TVNKTES (O-β-GlcNAc) | Antigen peptide transporter 1/Antigen peptide transporter 2 (Homo sapiens, UniProt Q03518+Q03519) | substrate | peptide, streptolysin O-permeabilised LCL721 cells | concentration not given | baseline: control peptide | translocation | 40 to 50% |

| Substance | target or system | test | system | setting | how to read | measurement | value |
| --- | --- | --- | --- | --- | --- | --- | --- |
| CN1c2ccc(OC(=O)NCCCCCCN3CCOC(CF)C3)cc2CN2CCc3ccccc3C21 (racemic) | Cholinesterase (BCHE, Homo sapiens, UniProt P06276) | enzyme activity, inhibitor, Ellman | – | – | – | KI (inactivation) | 200 nM |
| O=S(=O)(O)Oc1ccc(-c2ccc(Cl)c(Cl)c2)cc1 | sulfatase, human liver microsomes | substrate | – | pH 7.4, 37 °C | – | Vmax | 2.1 ± 0.2 nmol/min/mg |
| CC[C@H](C)[C@H](NC(=O)[C@H](C)NC(=O)[C@H](CCC(=O)O)NC(C)=O)C(=O)N[C@H](C(=O)N[C@@H](CCCNC(=N)N)C(=O)N[C@H](C(=O)N[C@@H](CC(C)C)C(=O)N[C@@H](CCC(N)=O)C(=O)N[C@@H](CCC(N)=O)C(=O)N[C@@H](CC(C)C)C(=O)N[C@@H](CC(C)C)C(=O)N[C@@H](Cc1ccccc1)C(=O)N[C@H](C(=O)N[C@@H](Cc1c[nH]cn1)C(=O)N[C@@H](Cc1ccccc1)C(=O)N[C@@H](CCCNC(=N)N)C(=O)N[C@H](C(=O)NCC(N)=O)[C@@H](C)CC)[C@@H](C)CC)[C@@H](C)CC)[C@@H](C)CC | HIV-1 integrase and DNA substrate | DNA binding, gel retardation | – | 2 h, 37 °C, with: radiolabelled oligonucleotide DNA | – | minimum DNA retardation concentration | 37 µM |
| CC(C)[C@@H](CN1CCN(c2cccc(O)c2)[C@@H](C)C1)NC(=O)c1ccc(Oc2ccc(O)cc2)cc1 | Delta-type opioid receptor (OPRD1, Homo sapiens, UniProt P41143) | antagonist | CHO | with: DPDPE | – | Ke | 1700 ± 380 nM |
| COc1ccc(CC2=[N+](C)CCc3cc(OC)c(O)cc32)cc1O | DRS-DRR fusion enzyme REPI (Papaver somniferum, UniProt A0A0H4IM19) | enzyme activity, substrate, LC-MS product formation | – | with: NADPH 500 µM | – | substrate inhibition constant | 43.9 ± 15.4 µM |
| CC1N=C(c2ccccc2F)c2cc(Nc3ccccc3F)ccc2NC1=O (stereo not drawn) | Alpha-2C adrenergic receptor (ADRA2C, Homo sapiens, UniProt P18825) | ligand displacement, radioligand | – | 10 µM | – | inhibition | 58% |
| Nc1ncnc2c1ncn2C1CC2OP(=O)(O)OCC3OC(n4cnc5c(N)ncnc54)C(O)C3OP(=O)(O)OCC2O1 (stereo not drawn) | gdpP residues 84-659 | substrate, HPLC | – | 100 µM, 37 °C, upper limit if undegraded 24 h, with: enzyme 1 µM | – | degradation rate | 3.5 ± 0.3 mol/min/mol enzyme |
| CC1(NC(=O)c2nn(Cc3ccc(F)cc3)c3ccccc23)CCCN(CC(N)=O)C1 (stereo not drawn) | CNR1 | calcium mobilization, agonist | CHO-K1 expressing Gαq16 | – | baseline: CP55,940 maximum | Emax | 142 ± 11% |
| C#CCOc1cccc(-c2cc(=O)c3ccccc3o2)c1 | Cytochrome P450 1A1 (CYP1A1, Homo sapiens, UniProt P04798) | EROD activity, mechanism-based inhibitor | – | – | – | kinact | 0.09 min⁻¹ |
| N[C@@H](CCCCNP(=O)(O)O)C(=O)O | Phospholysine phosphohistidine inorganic pyrophosphate phosphatase (LHPP, Homo sapiens, UniProt Q9H008) | enzyme activity | – | concentration not given, 90 min, pH 7.8, with: substrate 100 µM | – | substrate hydrolysis | 56.3% |
| CN[C@@](C)(C[18F])C(=O)O | – | – | SCID mouse SK-OV-3 xenograft, brain | 120 min, post injection | – | tissue uptake | 0.2 ± 0.1 %ID/g |
| O=C(Cc1ccccc1F)N[C@H]1CCOC1=O | HTH-type quorum-sensing regulator RhlR (rhlR, Pseudomonas aeruginosa, UniProt P54292) | reporter gene, agonist | Escherichia coli reporter strain | 100 µM | baseline: BHL 900 µM | activation | 66% |
| N=C(N)NCCC[C@@H]1NC(=O)CNC(=O)[C@H](CC(N)=O)NC(=O)[C@@H](N)CSSC[C@@H](C(=O)O)NC1=O | Aminopeptidase N (Rattus norvegicus, UniProt P15684) | enzyme activity, inhibitor, absorbance | – | 50 µM, pH 7.8, with preincubation | – | remaining activity | ~82% |
| CC(=O)[C@H]1CCC2C3CC[C@H]4C[C@H](O)CC[C@]4(C)C3CC[C@@]21C (stereo partly drawn) | Nuclear receptor ROR-alpha (RORA, Homo sapiens, UniProt P35398) | AlphaScreen | – | – | baseline: 25 µM 7α-hydroxycholesterol | maximal response | 149% |
| CC[C@H](C)[C@H](NC(=O)[C@H](C)NC(=O)[C@H](CCC(=O)O)NC(C)=O)C(=O)N[C@H]1CCCC=CCCC[C@@H](C(=O)N[C@@H](CCC(N)=O)C(=O)N[C@@H](CC(C)C)C(=O)N[C@@H](CC(C)C)C(=O)N[C@@H](Cc2ccccc2)C(=O)N[C@H](C(=O)N[C@@H](Cc2c[nH]cn2)C(=O)N[C@@H](Cc2ccccc2)C(=O)N[C@@H](CCCNC(=N)N)C(=O)N[C@H](C(=O)NCC(=O)N[C@@H](CCCNC(=N)N)C(=O)N[C@@H](CCCNC(=N)N)C(=O)N[C@@H](CCCNC(=N)N)C(=O)N[C@@H](CCCNC(=N)N)C(=O)N[C@@H](CCCNC(=N)N)C(=O)N[C@@H](CCCNC(=N)N)C(=O)N[C@@H](CCCNC(=N)N)C(=O)N[C@@H](CCCNC(=N)N)C(N)=O)[C@@H](C)CC)[C@@H](C)CC)NC(=O)[C@H](CC(C)C)NC(=O)[C@H]([C@@H](C)CC)NC(=O)[C@H](CCCNC(=N)N)NC1=O | HIV-1 integrase and DNA substrate | DNA binding, gel retardation | – | 2 h, 37 °C, with: radiolabelled oligonucleotide DNA | – | minimum DNA retardation concentration | 4 µM |
| Clc1ccc(Cl)c(-c2c(Cl)ccc(Cl)c2Cl)c1Cl | Ryanodine receptor 1 (Oncorhynchus mykiss, UniProt A0A8C7UX14) | [3H]ryanodine binding | rainbow trout, skeletal muscle microsomes | – | – | EC20 | 720 nM |
